# Assay results collected from several papers.
# Each numbered part is a random draw from the data of one study; scales do not carry over between parts. Substitutions count along the parent as printed.

# Study 1
# Target: RNA binding protein fox-1 homolog 2, RRM domain, GST-SBP tag (RBFOX2, Homo sapiens, UniProt O43251-10, residues 100-194)
# Technique: RNA Bind-n-Seq
# Form: RNA
# Medium: in vitro
# Tested at: 365 nM
# Notes: natural RNA segment, single round, ends assumed
# Baseline: no-protein control
# Direction: higher = stronger binding
# Residues (chain): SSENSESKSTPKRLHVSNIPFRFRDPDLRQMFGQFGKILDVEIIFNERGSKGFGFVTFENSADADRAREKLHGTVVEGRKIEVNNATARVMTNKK
Strand,RBNS enrichment (R)
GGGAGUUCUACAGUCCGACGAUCAUUCUUACUUGUUAGAAAUGUAGAAUGAACUUUGUUUGUAAUCCUUAAAUUAAAAUGUGGUAAGUAGGAAGCAAGAACUUAUUCUGUGUUUUUACGCAGCCAUACACUUAUGGAAUUCUCGGGUGCCAA,0.362
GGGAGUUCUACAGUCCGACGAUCGUGAACAAAAGGGAUGUGUUAUGGGGCUGGAGGUGUGAUUAGGUAGGAGGGAAACUGUUGGACCGACUCCUGCCCCCUGCUCAACACUGACCCCUCUGAGUGGUUGGAGGUGGAAUUCUCGGGUGCCAA,0.627
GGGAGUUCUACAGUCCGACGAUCUCUGCACAGUGCAGGAGACUUUAUUCCUUUGGAAAAUUCACUGUUCCACAAACAGCAGGCUGAAUGGCCUCGCCUCUAGAUUGACGUGGGCCAGCCUCCUUGAGACACACUGGAAUUCUCGGGUGCCAA,0.333
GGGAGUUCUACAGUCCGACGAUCCUCAGAGAGUGUCGGUGGUUAAAGUAAGAGAACAUUGGUUGGUCAGCAACGUGAUCUGUAACUUGAUGUGGAGACGGGUGGUAGGACCCUGCUGAGGUUCAGAACUUUGAUGGAAUUCUCGGGUGCCAA,1.68
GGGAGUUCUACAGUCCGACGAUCCAGUGCCUGAGACUUUCCUGCCACGCUGCAGACAGUGGCAGUUGGUAGCAUGGGUGGUUCAUCAGAGCAGUGGUGGCUCUUGCCUGGCAGUCAGCCCCUUCAAGUCUGGAUGGAAUUCUCGGGUGCCAA,1.04
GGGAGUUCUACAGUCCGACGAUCCUUAACUCAUGUCCCAUCUAUCCUCAGCUGGCCUUGGACCUACAUAGGAGUUGAAUGGGGAGGGGCUACAAUGGGUCUUCCUGUGGUUGGUCCUGAUGUUGUAUGUACUAUGGAAUUCUCGGGUGCCAA,0.594
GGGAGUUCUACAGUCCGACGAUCAGUGCUACUGUCUGUGCCCUCCUAGGCCACACAGCCUGAGGGAGCUUGCAUGGGUCUGCCCGUGUCGACAGACCCUAGGCUCCCAGUCUCUCUCCUUCAUGUGCUAUUCUUGGAAUUCUCGGGUGCCAA,0.514
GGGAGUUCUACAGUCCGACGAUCCUCACCUACCUCCUGGAGCAUGUGCUGCUGCCCAGCUGAGCGGCUGCCGCCCCACCCUGUGCUCUCCGGAUCCCACUAGCCACAGGCAUCUCCAGGAGGGCCCGGGGCUCUGGAAUUCUCGGGUGCCAA,0.462
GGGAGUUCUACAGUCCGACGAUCAAAGAGCCUCAGUCUGACUGAUUUCAAACACUUUUUUUCUCCUGUGUAUUGCUUUUAAGAGAGCCAUCAGUUAGCUAUCAGAAUCUAGGUUGAUGCAUUUUUGUACUUAGUGGAAUUCUCGGGUGCCAA,2.48
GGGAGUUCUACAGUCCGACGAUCUUCUGCCCCAGCUCUGAGACACUUGCAGAUCUUAAGGUCUGAGACUUGCUGAUUUUCUGGUUGGAGUGUUUUUUUGUAUUGCCAUAGUCCCUUCCCCCUGAAGCAAUAGCUGGAAUUCUCGGGUGCCAA,1.24
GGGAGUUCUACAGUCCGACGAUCCAACCAAGAGGUGAGGACUGGAUCUCACGGAAGUGGCAUGGCCAUGACCCUGAGCUUCUGCCAGCCUGGAGGACCCGUGCUAAGUGGACCACGCCUUCCCGCUCGGCGGCUGGAAUUCUCGGGUGCCAA,0.528
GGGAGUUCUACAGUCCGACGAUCACUGGCUCUUGGGAGAGCAAAAGGGACCUCCCGGACUCCUUAAAGCCCAGGCCGGCCAUCUUCUGCUGCUGGUACUUGGAUGGGCAAUGGUCACUGUGUUUCCACACAGCUGGAAUUCUCGGGUGCCAA,0.559

# Study 2
# Target: CCNE1, cyclin fold, Cln2 fusion (human)
# Technique: yeast growth competition, sequencing
# Medium: yeast
# Notes: weak parent motif
# Baseline: not given
# Direction: higher = stronger binding
# Parent: WEE1 docking peptide (human); HKTFRKLRLFDTP
Change,normalised enrichment score
T3P,0.853
P13H,-0.984
R8A,0.693
T12Q,0.0661
D11I,0.499
F4C,0.206
K6I,1.01
T12R,0.739
D11H,-0.626
R8C,0.833
L7I,1.21
L7A,-0.444
R8H,0.944
T12K,0.48
T12C,0.616
H1C,0.501
K2D,1.11
R5D,0.666
K2Q,0.838
T12M,1.31
L9P,-0.0401
T3R,-0.0768

# Study 3
# Target: Sal-like protein 4, full length isoform B (SALL4, Homo sapiens, UniProt Q9UJQ4-2, residues 1-616)
# Technique: universal PBM
# Form: double-stranded DNA, one strand shown
# Medium: in vitro
# Tested at: not given
# Notes: 8-mer, flanks averaged, mean of replicates
# Direction: higher = stronger binding
Strand,E-score
CAGGGTTA,-0.159
CCTGTGGA,-0.218
ATGGCAGC,0.0456
CTGCACGC,-0.26
AAGGGTAC,0.0605
CCCTTAAG,0.0299
CCCACAGA,-0.116
CGAATCCC,-0.232
GCCAGGAA,-0.0561
GATTTCTA,0.18
AATGCAGA,0.168
GCTGGTGA,-0.158
CGGATTAA,0.0863
AGAAAACC,-0.0192
CCTGCTAC,-0.0329
TATCGGCA,0.0327
AATCTAGT,0.167
AGCTCCGG,-0.279
CGGGTTAC,-0.023
ACACATCG,0.0433
CAGTTTAG,0.00883
GCAGGAAA,-0.054

# Study 4
# Target: POU domain, class 5, transcription factor 1, POU domain (Pou5f1, Mus musculus, UniProt P20263, residues 131-289)
# Sequence of UniProt P20263 (131-289, looked up): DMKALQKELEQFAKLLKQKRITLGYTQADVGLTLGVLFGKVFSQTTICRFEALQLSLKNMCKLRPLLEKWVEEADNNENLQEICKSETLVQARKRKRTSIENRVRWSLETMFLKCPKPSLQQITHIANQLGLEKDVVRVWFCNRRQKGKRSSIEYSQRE
# Technique: Spec-seq
# Form: double-stranded DNA, one strand shown
# Medium: in vitro
# Tested at: not given
# Notes: whole probe, mean of replicates
# Baseline: not given
# Direction: lower = stronger binding
# Shared flanks, not repeated: GAGTCGTCTCGTCAGCAC … CCGTAGAGCACTCAGGTC
Strand,relative binding energy [ln ratio]
ATCGCGAT,0.735
ATGCCTGC,0.768
TTATTAAT,-0.288
GTGGTAAT,0.453
ATGCACAA,-0.136
ATGGTCAT,0.657
ATCTGGAT,0.58
ATCTTAAT,0.147
ATGTCAAT,0.176
ATTTGGAT,0.0637
ATGCCGCG,0.889
ATGCACGA,-0.0223
ATGCATTC,-0.684
ATCGCTAT,0.657
GGCATAAT,-0.206
ATGCAACT,-0.156
ATGCCCGA,0.603

# Study 5
# Target: Centromere-binding protein 1, full length, N-terminal tag (CBF1, Saccharomyces cerevisiae, UniProt P17106, residues 1-351)
# Sequence of UniProt P17106 (whole entry, looked up): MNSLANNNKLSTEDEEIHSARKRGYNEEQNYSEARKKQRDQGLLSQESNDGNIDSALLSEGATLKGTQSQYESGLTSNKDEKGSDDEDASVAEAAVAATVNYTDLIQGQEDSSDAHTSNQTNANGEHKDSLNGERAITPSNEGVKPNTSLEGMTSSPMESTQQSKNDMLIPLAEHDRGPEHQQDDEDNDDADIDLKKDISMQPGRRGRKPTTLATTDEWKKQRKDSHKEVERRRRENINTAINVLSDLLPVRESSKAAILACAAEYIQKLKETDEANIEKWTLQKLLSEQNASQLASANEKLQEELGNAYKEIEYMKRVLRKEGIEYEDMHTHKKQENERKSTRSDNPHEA
# Technique: protein-binding microarray
# Form: double-stranded DNA, one strand shown
# Medium: in vitro
# Tested at: 0.8 µM
# Notes: whole 60-bp probe, no competitor
# Direction: higher = stronger binding
Strand,fluorescence intensity
CTAAAGTCTACCCAGCACGCATCCTTCGTTTATTTCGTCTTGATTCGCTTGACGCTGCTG,523 a.u.
GAACGAATTTAATACTGCCTGACGGCGTGCCACTAGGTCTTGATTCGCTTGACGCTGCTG,565 a.u.
CTATCTTCTAGCGCTTTGATCACGTGCTCGGGCTTCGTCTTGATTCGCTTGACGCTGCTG,25000 a.u.
CTAGGGCAATTAAGCATCAGAAGAGGGGAATTTTTCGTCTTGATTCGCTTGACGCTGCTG,496 a.u.
CTAATCATCCTTTACCACGTCATTCATTAAAACTTCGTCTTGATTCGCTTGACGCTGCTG,570 a.u.
CTATACATGCCGGGGCTCGTGCTTATTCATATTTTCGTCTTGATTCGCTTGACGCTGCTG,578 a.u.
GAACTTCGCTCAAGTCACGAAAGCACATCTTACTAGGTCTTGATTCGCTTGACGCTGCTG,536 a.u.
CTACATTAAGGTTGTTATCTCGTGGACCACAACTTCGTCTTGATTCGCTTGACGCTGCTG,649 a.u.
GAACCTGCCTCCCGTCATGCCAAGAGCCGTACTTAGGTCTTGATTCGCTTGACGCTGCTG,513 a.u.
GAAGCCTGAGTTACTCTCATGATTGGGACCGAATAGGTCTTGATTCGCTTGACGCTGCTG,525 a.u.
GAAATACAGAGGCTTCATGTGACCGGAGAAAGGTAGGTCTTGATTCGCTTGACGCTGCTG,2000 a.u.
CTATACCATCCCGATGGTGATGGTTGTGAATGCTTCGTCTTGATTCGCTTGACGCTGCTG,482 a.u.
GAAATCCATTTCAATCATGAGAAATGTTTCTTCTAGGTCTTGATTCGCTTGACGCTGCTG,461 a.u.
GAATTACAGATTTGTCACGTGATCAATATCACCTAGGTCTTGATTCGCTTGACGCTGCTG,50700 a.u.
GAATTTTCATGATGACTGGTGACTGTTTCTCAATAGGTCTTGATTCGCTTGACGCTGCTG,554 a.u.
CTAAATTCCTGTAGCTACGTGATGACCTCTGCTTTCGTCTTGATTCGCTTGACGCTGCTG,536 a.u.
CTACGGGTACCCTCCCTCGTGCTATTATATTACTTCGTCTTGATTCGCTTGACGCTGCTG,962 a.u.
GAAATGCTAGTACAACACGTTTGGTTGAAAATTTAGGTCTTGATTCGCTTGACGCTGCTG,506 a.u.
CTATCCCGCAGTCCTGGCGTGATAAGCCACTGCTTCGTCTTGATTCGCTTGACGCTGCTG,544 a.u.
GAAGAGTGACCTGAGCAGGTGACTTAGGTGGAGTAGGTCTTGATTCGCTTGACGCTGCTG,2300 a.u.
CTAGCAAGAATTACTCGTGAGTAAGGAAAGAGTTTCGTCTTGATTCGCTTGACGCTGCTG,565 a.u.
CTACACTACCGTAACAACGTGGTAGTTGGCAGATTCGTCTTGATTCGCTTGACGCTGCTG,575 a.u.
CTATTTTCTTTTCACCTGCTCTGGCTATAATTATTCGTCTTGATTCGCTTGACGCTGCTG,697 a.u.
CTAATTGATTGGGTTCATGACACCCAGGGAAGTTTCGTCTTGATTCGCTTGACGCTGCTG,519 a.u.
CCTAACTACTATATGCACGTGGGATAGCTTCGTACAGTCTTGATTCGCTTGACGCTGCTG,3650 a.u.

# Study 6
# Target: Histone acetyltransferase KAT6A, both winged helices, GST fusion (KAT6A, Homo sapiens, UniProt Q92794, residues 1-181)
# Technique: protein binding microarray
# Form: double-stranded DNA, one strand shown
# Medium: in vitro
# Tested at: not given
# Notes: 8-mer, flanks averaged, mean of 2 arrays, mostly near background
# Baseline: not given
# Direction: higher = stronger binding
# Construct (chain): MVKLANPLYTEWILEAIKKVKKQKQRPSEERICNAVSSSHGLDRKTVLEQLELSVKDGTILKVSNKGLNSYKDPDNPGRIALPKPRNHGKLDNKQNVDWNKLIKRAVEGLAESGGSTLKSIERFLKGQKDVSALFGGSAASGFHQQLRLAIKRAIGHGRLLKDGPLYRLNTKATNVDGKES
Strand,E-score
TCGCGCAA,0.301
ACGCCAGA,0.0121
ACACCATA,-0.0233
ATGACTCC,-0.118
GTCAAACA,-0.0665
CAACTGAC,-0.0428
AACCTTTC,0.0206
TGATCGCA,0.0971
CACCTGAG,-0.155
AACGGCAA,0.191
CGCTCCCA,0.118
ATGGTTGC,-0.0513
TAATACAA,-0.0836
CATCACGC,0.14
AAAGATTT,-0.0198
ATCCACCA,-0.235
CAGGAAGA,-0.0773
ATCCTCCG,0.00235
CCACTCGA,-0.184
CGAATATA,-0.0404
TGGGCTAA,-0.112
GTTTCACA,0.0614
